Experimental data of several laboratories.
Lines come from different studies, so protocols differ. Numbers after ± are the reported error.

Structure (SMILES)	target or system	assay	system	conditions	scale	quantity	value
N#Cc1ccc2c(c1)[C@H]1CCCN(C(=O)c3ccc4[nH]cnc4c3)[C@H]1C2			human	240 mg, day 7		mean ACTH level	6.3 pmol/L
CC(=O)N(C)[C@H]1CCN(C(=O)c2cnc3c(c2)C[C@](C)(c2ccc(F)cc2)N3)C1		item: urinary frequency	human	oral, 15 mg once daily		adverse event duration	5 days
CNC(=O)c1cc(Oc2ccc(NC(=O)Nc3ccc(Cl)c(C(F)(F)F)c3)cc2)cc[n+]1[O-]			mouse, Oatp1b2 knockout, plasma	oral, 10 mg/kg, geometric mean, together with: rifampin 20 mg/kg iv		AUC(0-7.5 h)	200 ng·h/mL
O=C(/C=C/CCc1ccc(O)cc1)/C=C/c1ccc(O)cc1			nude mouse MCF7 xenograft	20 mg/kg, day 2		body weight	20.6 ± 0.92 g
CCC(C)n1ncn(-c2ccc(N3CCN(c4ccc(OCC5COC(Cn6cncn6)(c6ccc(Cl)cc6Cl)O5)cc4)CC3)cc2)c1=O (stereo not drawn)			healthy human volunteers	oral, 200 mg, event Vomiting, continued dosing		adverse events	0%
Cn1cc(-c2ccc(-c3cncc(Cl)c3N3CCC4(CCNC4=O)CC3)cc2)cn1	COLO 205	gene expression, microarray, item: CAPG mRNA		concentration not given, 6 h	baseline: untreated cells	log2 fold change	2.03
CCO[C@H]1CCN(Cc2c(OC)cc(C)c3[nH]ccc23)[C@H](c2ccc(C(=O)O)cc2)C1			PNH patients, active haemolysis	oral, 50 mg, 4 weeks, treatment		incidence of nasopharyngitis	0%
Cc1[nH]nc(S(=O)(=O)NCc2ccc(Br)cc2C(F)(F)F)c1C(=O)O		colloidal aggregate formation, dynamic light scattering	50 mM potassium phosphate buffer	200 µM, pH 7.0, 1% DMSO	higher = more aggregation	DLS scattered light intensity	8.88e+06 counts/s
Cc1cccc(CNC(=O)c2cn(CCNC(=O)c3ccccc3Sc3c([N+](=O)[O-])ncn3C)c3cc4c(cc3c2=O)OC(F)(F)O4)n1			Sprague-Dawley rat, male, plasma	intravenous, 5 mg/kg		Vdss	10.2 ± 1.64 L/kg
CC(C(=O)NCC(=O)NCC(CNC(=O)CNC(=O)C(C)N1CCN(CC(=O)[O-])CCN(CC(=O)[O-])CCN(CC(=O)[O-])CC1)(CNC(=O)CNC(=O)C(C)N1CCN(CC(=O)[O-])CCN(CC(=O)[O-])CCN(CC(=O)[O-])CC1)CNC(=O)CNC(=O)C(C)N1CCN(CC(=O)[O-])CCN(CC(=O)[O-])CCN(CC(=O)[O-])CC1)N1CCN(CC(=O)[O-])CCN(CC(=O)[O-])CCN(CC(=O)[O-])CC1.[Gd+3].[Gd+3].[Gd+3].[Gd+3] (stereo not drawn)		ICP-MS	cynomolgus monkey	dose not given, 4 d, mass balance group	baseline: dose	cumulative urinary excretion	100%
CNC(=O)c1ccc(-c2cnc3ncc(Cc4ccc5ncccc5c4)n3n2)cc1F		CTCAE v4.0, any causality	human cancer patients	oral, dose not given, dose escalation		non-cardiac chest pain incidence (all grades)	11%
COc1ncc(-c2nc3c(n2C(C)C)[C@H](c2ccc(Cl)cc2)N(c2cc(Cl)cn(C)c2=O)C3=O)c(OC)n1			human patients, plasma	oral, 100 mg, high-dose arm, cycle 2 day 1		median half-life	19.9 h
Cc1nc(-c2cnc(NC(C)C)n(C)c2=O)ccc1Oc1ccnc(-c2cnn(C)c2)c1			Beagle dog, male, plasma	oral, 30 mg/kg, crossover study, mean		half-life	10.5 h
COc1cc(Nc2ncc3c(n2)-c2ccc(Cl)cc2C(c2c(F)cccc2OC)=NC3)ccc1C(=O)O		item: Dyspnea, grade 2	cancer patients, phase 1/2	oral, dose not given, together with: pembrolizumab		patients with adverse event	8%
CC(C)(C(=O)N1CCOc2c(C#N)cncc2C1)C(F)F		item: Ecchymosis	human	oral, 20 mg twice daily, 14 days, multiple ascending dose		subjects with adverse event	0%
O=C(O)CCCOc1ccc([18F])cc1-c1cc(-c2ccccc2C(F)(F)F)n(-c2ccccc2)n1		gamma counting	male ddY mice, bone	intravenous, 2.1 MBq, 1 min		radioactivity uptake	0.76 ± 0.3 SUV
O=C(Nc1nc2cccc(-c3ccc(CN4CCS(=O)(=O)CC4)cc3)n2n1)C1CC1		item: immune system disorders	human rheumatoid arthritis patients	oral, 300 mg once daily, 4 weeks, regardless of relatedness		treatment-emergent adverse events	0%
CCN1/C(=C/C(C)=O)Sc2ccc(F)cc21			cynomolgus monkey	oral, 30 mg/kg, 0.5 h post-dose		systolic blood pressure	112 ± 8 mmHg
CCCCC[C@H](O)CC[C@@H]1[C@H]2Cc3cccc(OCC(=O)O)c3C[C@H]2C[C@H]1O		LC-MS/MS	Japanese CTD-associated PAH patients, plasma	inhaled, 54 µg		geometric mean Cmax	0.66 ng/mL
Cn1ncc(S(=O)(=O)NC2(c3cccc(OC(F)(F)F)c3)CC2)c1C(=O)O		colloidal aggregate formation, dynamic light scattering	50 mM potassium phosphate buffer	200 µM, pH 7.0, 1% DMSO	higher = more aggregation	DLS scattered light intensity	373000 counts/s
CNc1ccc(-c2nc3ccc(O)cc3s2)cc1 [carbon-11 labelled]		microPET/CT imaging	APP/PS1 mouse, AD model, heart	intravenous, 5 min		SUV	1.17 ± 0.743
C[C@H]1CN(C(=O)CC#N)[C@]12CCN(c1ncnc3[nH]ccc13)C2			healthy human	oral, 3 mg single		subjects with TEAEs	25%
O=C(O)CCC(=O)O.[2H]C([2H])([2H])Oc1cc(C)c2[nH]ccc2c1CN1CC[C@@H](C2CC2)C[C@H]1c1ccc(C(=O)O)cc1		multiple ascending dose	healthy Chinese subjects	200 mg once daily		subjects with TEAE Diarrhea	12.5%

Structure (SMILES)	target or system	assay	system	conditions	scale	quantity	value
O=C(Nc1cnccc1Cl)N1CCN(Cc2ccc3c(c2)OC(F)(F)O3)CC1			healthy young women, plasma	oral, 100 mg once daily, day 10		CL/F	14.7 L/h
CCc1cc(C(=O)NC)c2nccc(N3CCc4c(cc(Cn5ccnc5)cc4-c4cn(C)nc4C(F)(F)F)C3=O)c2c1			Sprague Dawley rats	oral, 50 mg/kg once daily, 7 days	baseline: vehicle	serum HDL change	-1.4%
COc1cc(N)c(Cl)cc1C(=O)NC1CCN(CCCOc2ccc(F)cc2)CC1OC (stereo not drawn)			male Hartley guinea pig, anaesthetized	intravenous, 1 mg/kg, baseline before infusion		QTc interval	306 ± 0.2 ms
CO[C@@H]1[C@H](O)[C@@H](CO)O[C@H]1n1c([N+](=O)[O-])nc2c(=O)[nH]c(N)nc21		depurination, RP-HPLC	citrate-phosphate buffer 0.5 mM	105 min, pH 7, 37 °C		nucleoside remaining fraction	0.927
Cc1nc2cccc(OCC(C)(C)C(=O)NC(C)C)c2c(N)c1C(=O)O.Cc1nc2cccc(OCC(C)(C)C(=O)NC(C)C)c2c(N)c1C(=O)O.O=S(=O)(O)O			male Sprague-Dawley rat, plasma	oral, 30 mg/kg		Tmax	0.25 h
COc1c(N2C[C@@H]3CCCN[C@@H]3C2)c(F)cc2c(=O)c(C(=O)O)cn(C3CC3)c12			male Hartley guinea pig, anaesthetized	intravenous infusion, 10 mg/kg, 10 min infusion, post-infusion		QTc interval	358 ± 1.3 ms
CCCOc1ccc([C@H]2CNC(=O)N2c2ccc3[nH]cnc3c2)cc1			human volunteers fasted, plasma	oral capsule, 200 mg single dose, crossover, geometric mean		AUC(0-tlast)	2100 ng·h/mL
CCCCc1ccc(C#Cc2ccc(OCC)cc2)cc1		item: compound	human pregnant women, female fetuses, maternal serum	dose not given, paired maternal-cord samples, mean		concentration	0.5 ng/mL
CNCc1ccc(-c2[nH]c3cc(F)cc4c3c2CCNC4=O)cc1			patients	oral, 600 mg twice daily, grade 1		asthenia/fatigue incidence	19.2%
CCOc1c([C@H](C)n2nc(C)c3c(N)ncnc32)cc(Cl)c(F)c1[C@@H]1CNC(=O)C1		item: 30 < ΔQTcF ≤ 60 ms	previously treated B-cell malignancy	oral, dose not given, baseline QTcF ≤450 ms, all doses		share of patients	9.1%
COc1ccc2c(c1)CN(C(=O)CCN1CCC(Cc3ccccc3)CC1)CC[S@@+]2[O-]		telemetry	conscious dog	intravenous, 4 mg/kg, 4 h		diastolic blood pressure	74 ± 8 mmHg
CN(C(=O)n1cnc(-c2cccnc2)c1)C1CCCCC1			Wistar rat, cerebellum	oral, 10 mg/kg of BIA 10-2474, 24 h, single dose		concentration	5.9 ± 0.1 ng/g
COc1ccnc(C(=O)O)c1O		soil adsorption	clay soil	pH 7.6, organic carbon 1.7 %		Freundlich coefficient KF	93.8 mL/g
COC(=O)C1CC(C(NS(=O)(=O)c2cccc(Cl)c2O)C(=O)OC)C1 (stereo not drawn)		colloidal aggregate formation, dynamic light scattering	50 mM potassium phosphate buffer	200 µM, pH 7.0, 1% DMSO	higher = more aggregation	DLS scattered light intensity	391000 counts/s
CC(=O)c1cc(C(=O)N[C@@H](C)Cn2ccc(-c3ccc(C#N)c(Cl)c3)n2)[nH]n1			human, fasted, plasma	oral solution, 300 mg 14C-darolutamide, geometric mean		AUC(0-tlast)	93400 ng·h/mL
Cn1ncc(S(=O)(=O)NC2CC(C)(C)Oc3ccc(F)cc32)c1C(=O)O (stereo not drawn)		colloidal aggregate formation, dynamic light scattering	50 mM potassium phosphate buffer	200 µM, pH 7.0, 1% DMSO	higher = more aggregation	DLS scattered light intensity	2.3e+08 counts/s
CC(=O)O[C@H]1C(=O)[C@@]2(C)[C@H]([C@H](OC(=O)c3ccccc3)[C@]3(O)C[C@H](OC(=O)[C@H](O)[C@@H](NC(=O)c4ccccc4)c4ccccc4)C(C)=C1C3(C)C)[C@]1(OC(C)=O)CO[C@@H]1C[C@@H]2O		item: lymphocyte count decreased	patients with advanced solid tumours	intravenous, dose not given, phase Ib, related to compound		adverse events, all grades	33%
CNC(=O)c1ccc(-c2cnc3ncc(Cc4ccc5ncccc5c4)n3n2)cc1F			human mild hepatic impairment NCI	oral, 200 mg single dose, mean		AUC(0-inf)	7240 ng·h/mL
CC(C)/N=C(\N)c1ccc(NC(=O)c2ccc(C(=O)Nc3ccc(/C(N)=N/C(C)C)cc3)cc2)cc1		haemolysis	sheep erythrocytes	1 h, pH 7.5		HC50	> 128 µg/mL
Cc1ccc(C(=O)N(CCCN)C(c2nc3snc(C)c3c(=O)n2Cc2ccccc2)C(C)C)cc1 (stereo not drawn)		stomatitis grade ≥3 (CTCAE)	human patients	intravenous, 2 mg/day		patients with adverse event	0%
C[C@H](CCC(=O)NCC(=O)O)[C@H]1CC[C@H]2[C@@H]3CC[C@@H]4C[C@H](O)CC[C@]4(C)[C@H]3CC[C@]12C			human, plasma	endogenous baseline diurnal		daily mean concentration	31 ± 9.3 nM
COC1/C=C/OC2(C)Oc3c(C)c(O)c4c(O)c(c5c(nc6cc(C)ccn65)c4c3C2=O)NC(=O)/C(C)=C\C=C\C(C)C(O)C(C)C(O)C(C)C(OC(C)=O)C1C (stereo not drawn)		haemolysis	sheep erythrocytes	1 h, pH 7.5		HC50	> 128 µg/mL
